Experimental data collected from several papers.
Several values in a cell are separate wells, animals, samples, runs or records. ± marks the error that the study gave.

Compound | tested on | test | test system | setting | how to read | endpoint | result
CN(C(=O)C(C)(C)c1cc(C(F)(F)F)cc(C(F)(F)F)c1)c1cnc(N2C[C@H]3COCCN3C[C@H]2CO)cc1-c1ccc(F)cc1[14CH3] | cryopreserved human hepatocytes |  |  | 5 µM, 1 h |  | turnover | 81.8%
CC[C@H](C)C(=O)N1CCC(NC(=O)Nc2ccc(OC(F)(F)F)c(F)c2)CC1 | Caco-2 | Caco-2 permeability |  | 10 µM, 60 min, pH 7.4 apical, 7.4 basolateral, replicate 2 | apical to basolateral | percent recovery | 46%
CC(C)n1ncc2c(C(=O)NCC3(C)CNC3)cc(C3CC3)nc21 | HeLa | neutral red uptake |  | 0.11 µM, 2% FBS | baseline: positive control | viability | 100%
C1CCc2c(c(N3CCOCC3)nc3sc4c(N5CCNCC5)nnnc4c23)C1 | cryopreserved rat hepatocytes | UHPLC-MS peak area |  | 1 µM, 20 min |  | percentage of drug-related material | 32%
C[C@H](O)c1ccc(NS(=O)(=O)c2ccc(OCC3CCC3)c(Cl)c2)c2nn(C)cc12 | cryopreserved human hepatocytes | pan-CYP inhibition |  | 1 µM, added: 1 mM 1-aminobenzotriazole and 15 µM tienilic acid |  | metabolism inhibited by ABT and TA | 79%
CCCC(CCC)NC(=O)c1ccc2c(c1)OCO2 | CHO-WBL |  |  | 5.0 mg/mL, 3 h, with rat liver S9 |  | relative mitotic index | 105%
C[C@@H](c1ccc2nccn2c1)n1nnc2ncc(-c3cnn(C)c3)nc21 | human hepatocytes | measured: CYP1A2 |  | concentration not given, 48 h | baseline: omeprazole | mRNA induction | 1%
Cc1cn([C@H]2C[C@H](N=[N+]=[N-])[C@@H](CO)O2)c(=O)[nH]c1=O | CEM-SS | cell viability, XTT |  | added: glutathione 1 mM |  | TC50 | > 0.5 µM
C[C@H]1[C@H](OC(=O)CCC(=O)O)O[C@@H]2O[C@@]3(C)CC[C@H]4[C@H](C)CC[C@@H]1[C@@]24OO3 | human primary cardiac fibroblasts | cell viability |  |  |  | highest non-toxic concentration | > 50 µM
O=C(Nc1ccc([N+](=O)[O-])cc1Cl)c1cc(Cl)ccc1O | primary human keratinocytes uninfected | live/dead staining |  | 20 h |  | CC50 | 24.5 µM
COc1ccc2nccc(Cc3cccc(-c4ccc(CO)cc4)c3)c2c1 | human hepatocytes |  |  | 10 µM, 2 h |  | parent remaining | < 1%
CC[C@H](C)CCCCC(=O)N[C@@H](CCN)C(=O)N[C@H](C(=O)N[C@@H](CCN)C(=O)N[C@H]1CCNC(=O)[C@H]([C@@H](C)O)NC(=O)[C@H](CCN)NC(=O)[C@H](CCN)NC(=O)[C@H](CC(C)C)NC(=O)[C@@H](CC(C)C)NC(=O)[C@H](CCN)NC1=O)[C@@H](C)O | sheep erythrocytes |  |  | 512 µg/mL, 37 °C | baseline: Triton X-100 | hemolysis | < 5%
CCC[C@H](CC)Oc1ccc(C(C)(C)C)cc1NC(=O)c1nnn(-c2cc(OC)ccc2OC)c1C | SNU-C4 HiBiT-PXR knock-in | CellTiter-Glo |  | 72 h, 10% FBS |  | CC50 | > 30 µM
Cc1ccc(-c2ccc3c(c2)C=C(C(=O)Nc2ccc(C[N+](C)(C)C4CCOCC4)cc2)CCC3)cc1.[Cl-] | MAGI cells | cytotoxicity |  | attachment |  | TC50 | > 10 µM
CC(=O)ON=C1C=CC(=C(C#N)c2ccccc2)C=C1 | HDF-1 human skin fibroblasts | MTT |  | 24 h, serum-free DMEM |  | concentration of sudden viability drop | ≥ 30000 ng/mL
COc1cc(O)cc(/C=C/c2cccc(O)c2OC)c1 | HaCaT | cytotoxicity, MTT |  | 48 h, 10% FBS |  | IC50 | > 200 µM
CCCC(=O)OCSc1ccccc1C(=O)NCCn1cc(C(=O)NCc2cccc(C)n2)c(=O)c2cc3c(cc21)OC(F)(F)O3 | human PBMCs, PHA-P-stimulated | XTT |  | 7 days, CMU08 line |  | TC50 | > 100 µM
Cc1ccc(-c2nc(NS(=O)(=O)c3ccccc3)nc(N)c2-c2nc3ccccc3s2)cc1 | Vero | cytotoxicity |  | 72 h |  | maximum non-toxic concentration | 90 µg/mL
COc1cc(/C=C/C=C2\SC(=S)NC2=O)cc(OC)c1O | HeLa | CellTiter-Glo |  | 2.5 µM, 24 h, unit not given | baseline: untreated | viability | 0.975 and 1.03
NC(=O)c1cccnc1 |  | binding, MIDAS equilibrium dialysis LC-MS | A2AR-BRIL thermostabilized | concentration not given | baseline: no-protein control | log2 fold change | -0.158

Compound | tested on | test | test system | setting | how to read | endpoint | result
CC[C@H]1OC(=O)[C@H](C)[C@@H](O[C@H]2C[C@@](C)(OC)[C@@H](O)[C@H](C)O2)[C@H](C)[C@@H](O[C@@H]2O[C@H](C)C[C@H](N(C)C)[C@H]2O)[C@](C)(O)C[C@@H](C)/C(=N\OCOCCOC)[C@H](C)[C@@H](O)[C@]1(C)O | human hepatocytes | measured: CYP1A2 |  | concentration not given, 3 days | baseline: negative control | mRNA level | < 4 fold
COc1ccc(-c2nc(N3CCOCC3)c3sc(CN(C)c4ncc(C(=O)NO)cn4)cc3n2)cn1 | primary human keratinocytes uninfected | live/dead staining |  | 20 h |  | CC50 | 1.97 µM
CCCC(=O)OCSc1ccccc1C(=O)NCCn1cc(C(=O)NCc2ccccn2)c(=O)c2cc3c(cc21)OCO3 | CEM-SS | cell viability, XTT | RPMI with 10% FBS | 6 days |  | TC50 | > 100 µM
Cc1cc(C(=O)NC(C)(C)COc2cccc3c2C(N)=NS(=O)(=O)N3)cc(C)n1 | human peripheral blood lymphocytes | in vitro micronucleus |  | 500 µg/mL, 4 h, without S9, DMSO 0.4% |  | micronucleated binucleated cells | 0.2%
COc1cccc(-c2n[nH]c(SCc3ccccn3)n2)c1OC | CHO-WBL |  |  | 50 µg/mL, 3 h, added: rat liver S9 |  | micronuclei per binucleated cell | 0.014
Cc1cccc(CNC(=O)c2cn(CCNC(=O)c3ccccc3Sc3c([N+](=O)[O-])ncn3C)c3cc4c(cc3c2=O)OC(F)(F)O4)n1 | CEM-SS | cell viability, XTT |  | 6 days, RPMI with 10% FBS, added: glutathione 2 mM |  | TC50 | > 100 µM
O=C(CNc1nc(NS(=O)(=O)c2ccccc2)ncc1-c1nc2ccccc2s1)c1ccc(Br)cc1 | Vero | cytotoxicity |  | 72 h |  | maximum non-toxic concentration | 120 µg/mL
CCCC(=O)OCSc1ccccc1C(=O)NCCOc1ccnc2ccc(F)cc12 | CEM-SS | cell viability, XTT | RPMI with 10% FBS | 6 days |  | TC50 | 15.5 µM
O=P1(C2CCCCC2)CCCCC1 | SW480 | trypan blue |  | IC50, 72 h |  | viability | 96.3%
C=CC(=O)N(C)CCOc1c(N)ncnc1-c1cc(F)cc(NC(=O)c2ccc(C3CC3)cc2F)c1C | human hepatocytes | mRNA induction, inducer, measured: CYP1A2 |  |  |  | EC50 | 4.55 µM
CCC(=CCc1c(O)cc2c(c1O)C(=O)C[C@@H](c1ccccc1O)O2)CC | HeLa | cytotoxicity, MTT |  | 48 h, added: S9 fraction |  | log IC50 | 1.71 log µM
CCCCC(CC)COC(=O)CC(C(=O)OCC(CC)CCCC)S(=O)(=O)O (stereo not shown) | HCE | MTT |  | up to 50 µM |  | cytotoxicity | not toxic
Cc1ccc(S(=O)(=O)Oc2ccc(NC(=O)c3cnccn3)cc2)cc1 | MCF7 non-transfected | MTT |  | 100 µM, 24 h | baseline: untreated | viability | 81.6 ± 0.83%
O=C(/C=C\n1cnc(-c2cc(C(F)(F)F)cc(C(F)(F)F)c2)n1)NNc1ccccn1 | primary human keratinocytes uninfected | live/dead staining |  | 20 h |  | CC50 | 6.95 µM
CCCC(=O)OCSc1ccccc1C(=O)NCCOc1ccnc2ccc(C(F)(F)F)cc12 | CEM-SS | cell viability, XTT | RPMI with 10% FBS | 6 days |  | TC50 | 81.9 µM
COc1cc2ncnc(Nc3ccc(Oc4ccccc4)cc3C)c2cc1OC.O=C(O)C(F)(F)F | MeWo (NF1) | resazurin |  | 3 µM, 72 h, added: trametinib 0 nM |  | viability fraction | 0.778
CCCC(=O)OCSc1ccccc1C(=O)NCCn1ccc(=O)c2cc(F)ccc21 | CEM-SS | cell viability, XTT | RPMI with 10% FBS | 6 days |  | TC50 | 56.2 ± 1.9 µM
CC(C)C(=O)C(=O)O |  | binding, MIDAS equilibrium dialysis LC-MS | A2AR-BRIL thermostabilized | concentration not given | baseline: no-protein control | log2 fold change | -2.2
CCCC(=O)OCSc1ccccc1C(=O)NCCn1cc(C(=O)NCc2ncccn2)c(=O)c2cc3c(cc21)OCO3 | CEM-SS | cell viability, XTT | RPMI with 10% FBS | 6 days |  | TC50 | > 100 µM
Cc1noc(C)c1Cn1cc(N2C(=O)CN(Cc3cccc(O)c3)C2=O)cn1 | human blood lymphocytes |  |  | 823.8 µg/mL, 3 h, with 2% S9 |  | aberrant cells without gaps | 2%
